# Values quoted from earlier work, collected from citations in different studies.
# Protocols differ between the studies behind these lines.
# UniProt Q8TDR2, sequence (whole entry, looked up): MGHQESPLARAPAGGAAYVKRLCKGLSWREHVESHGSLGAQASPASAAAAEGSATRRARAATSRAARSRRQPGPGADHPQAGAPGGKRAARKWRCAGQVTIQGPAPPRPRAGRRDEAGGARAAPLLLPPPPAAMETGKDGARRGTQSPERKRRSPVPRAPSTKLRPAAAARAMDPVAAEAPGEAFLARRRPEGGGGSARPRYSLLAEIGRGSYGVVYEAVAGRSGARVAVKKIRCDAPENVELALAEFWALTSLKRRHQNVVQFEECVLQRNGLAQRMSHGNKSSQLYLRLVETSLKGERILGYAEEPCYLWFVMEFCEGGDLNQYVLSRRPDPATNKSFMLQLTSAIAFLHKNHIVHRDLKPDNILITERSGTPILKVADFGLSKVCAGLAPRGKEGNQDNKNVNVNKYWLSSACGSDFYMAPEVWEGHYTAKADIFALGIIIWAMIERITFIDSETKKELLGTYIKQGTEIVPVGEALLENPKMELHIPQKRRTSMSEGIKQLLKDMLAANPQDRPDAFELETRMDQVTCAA
Compound,tested on,test,test system,setting,scale,measurement,value
CC(C)(CO)c1cc2cc(NC(=O)C3(c4ccc5c(c4)OC(F)(F)O5)CC3)c(F)cc2n1C[C@@H](O)CO,,,human,,,oral clearance,1.39 L/h
CNCc1cc(-c2ccccc2F)n(S(=O)(=O)c2cccnc2)c1,,,human,oral,,oral clearance (CL/F),115 L/h
CC(C)(C)c1cc(C(C)(C)C)c(NC(=O)c2c[nH]c3ccccc3c2=O)cc1O,,,human,,,oral clearance,19 L/h
C=CC(=O)N1C[C@H](Nc2ncnc3[nH]ccc23)CC[C@@H]1C,,,"human, plasma",200 mg,,oral clearance,65 L/h
Nc1cc(C(F)(F)F)c(-c2nc(N3CCOCC3)nc(N3CCOCC3)n2)cn1,"Serine/threonine-protein kinase 35 (STK35, Homo sapiens, UniProt Q8TDR2)",enzyme activity,,10 µM,relative to: untreated,remaining activity,85%
Cn1c(=O)oc2ccc(-c3ccc(C[C@@H](C#N)NC(=O)[C@@H]4CNCCCO4)cc3)cc21,,,human,"oral, dose not given, together with: food",,oral absorption,no effect
CC1(C)S[C@@H]2[C@H](NC(=O)[C@H](N)c3ccccc3)C(=O)N2[C@H]1C(=O)O,Acinetobacter baumannii,,clinical isolate RKI-No_11/16,,,MIC,> 16 µg/mL
Nc1ccn([C@H]2CO[C@@H](CO)S2)c(=O)n1,,,human,1600 mg,,oral bioavailability,65 to 80%
O=C1Nc2ccc(Cl)cc2[C@@](C#CC2CC2)(C(F)(F)F)O1,,,human,Simcyp input parameter,,oral clearance (CLpo),9.07 L/h
CNC(C)C1CCC(N)C(OC2C(N)CC(N)C(OC3OCC(C)(O)C(NC)C3O)C2O)O1 (stereo not drawn),Acinetobacter baumannii,,clinical isolate RKI-No_11/16,,,MIC,8 µg/mL
O=C(O)[C@H]1/C(=C/CO)O[C@@H]2CC(=O)N21,,,human adults,oral,,oral bioavailability range,31.4 to 98.8%
Nc1nc(=O)n([C@@H]2C=C[C@H](CO)O2)cc1F,,,human,,,oral bioavailability,32%
N#Cc1ccc([C@H]2CCc3cncn32)c(F)c1,,,human,"oral, 30 mg",,oral clearance,~16.6 L/h
Cc1cn([C@H]2C=C[C@@H](CO)O2)c(=O)[nH]c1=O,,,human,4 mg/kg,,oral bioavailability,> 80%
CCCN(CCC)S(=O)(=O)c1ccc(C(=O)O)cc1,,,"human, plasma",,,oral clearance,1.03 L/h

# Some of these lines once more:
Compound,tested on,test,test system,setting,scale,measurement,value
N#Cc1ccc([C@H]2CCc3cncn32)c(F)c1,,,human,"oral, 30 mg",,oral clearance,~16.6 L/h
